Results gathered from unrelated publications.
Each numbered part is a random draw from the data of one study; scales do not carry over between parts. Substitutions count along the parent as printed.

Study 1 — target: CCNF, cyclin fold, Cln2 fusion (human); technique: yeast growth competition, sequencing; sample: yeast; notes: strong parent motif; relative to: not given; direction: higher = stronger binding; endpoint: normalised enrichment score
Starting sequence: WEE1 docking peptide (human); HKTFRKLRLFDTP
CKTFRKLRLFDTP [H1C]: 2.86
HKTCRKLRLFDTP [F4C]: 6.9
HKTFRKLRLTDTP [F10T]: 1.38
HKTFRKLVLFDTP [R8V]: 3.56
HKTFRKLRLFDSP [T12S]: 2.95
HKTFRKCRLFDTP [L7C]: 2.62

Study 2 — technique: protein-binding microarray; molecule type: double-stranded DNA, one strand shown; sample: in vitro; concentration: 250 nM; notes: 60-bp whole probe; added: salmon DNA 0.4 mg/ml; relative to: random background probes; direction: higher = stronger binding; endpoint: log fluorescence; shared flanks, not repeated: GCCTAGCAC … GTCTTGATTCGCTTGACGCTGCTG
Target: Interferon regulatory factor 7, full length, phosphomimetic (IRF7, Homo sapiens, UniProt Q92985, residues 1-503, S101K/S471D/S472D/S475D/S476D/S477D/S483D/S484D/S487D)
Target sequence (chain): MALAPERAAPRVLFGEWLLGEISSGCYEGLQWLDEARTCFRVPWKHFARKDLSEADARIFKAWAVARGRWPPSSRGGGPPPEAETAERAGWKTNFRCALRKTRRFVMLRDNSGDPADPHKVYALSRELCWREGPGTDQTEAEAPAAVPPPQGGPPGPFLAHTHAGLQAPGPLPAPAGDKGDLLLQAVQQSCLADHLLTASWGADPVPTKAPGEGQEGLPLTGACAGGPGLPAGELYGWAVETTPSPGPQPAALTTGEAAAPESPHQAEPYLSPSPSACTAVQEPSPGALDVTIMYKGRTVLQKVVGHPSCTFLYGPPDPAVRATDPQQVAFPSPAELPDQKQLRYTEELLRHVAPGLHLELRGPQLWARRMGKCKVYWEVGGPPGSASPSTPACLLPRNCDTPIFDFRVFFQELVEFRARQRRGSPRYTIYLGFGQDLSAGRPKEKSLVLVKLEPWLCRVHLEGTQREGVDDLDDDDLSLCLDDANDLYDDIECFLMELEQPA
TTAGATATCAGTTTCGATGAGTGCTAG: 2.08 z-score
TTAGATTTCAGTCTCTATTAGTGCTAG: 1.08 z-score
GACGGTCTCCTTGTCCTGACGTGCTAG: -0.318 z-score
GACGATCTCAGTATCGCGACGTGCTAG: -0.0696 z-score
CACCATCTAGTTCTGCTTTGGTGCTAG: 0.699 z-score
TTCCAATTCTTTTTATGCTTGTGCTAG: 1.27 z-score
CACCCTTGGAAGTATGACTCTGTGCTA: -0.143 z-score
ATAGGTTTCGGGTATCGGTTAGTGCTA: 8.1 z-score

Study 3 — technique: aptamer microarray, sandwich; molecule type: DNA with 2'F-ANA; sample: in vitro; concentration: 200 nM; added: Cy3 exosite-II aptamer, 400 nM; direction: higher = stronger binding; endpoint: mean fluorescence intensity; strand: GGTTGGTGTGGTTGG
Target: Prothrombin, mature alpha-thrombin (F2, Homo sapiens, UniProt P00734)
Notes: whole 15-mer aptamer, many near background
2'F-ANA at 9 10 12 13 14: 109 a.u.
2'F-ANA at 3 4 5 6 8 10 11 15: 52.7 a.u.
2'F-ANA at 2 5 6 10 11 15: 51.1 a.u.
2'F-ANA at 1 4 9 10 11 12 13 14 15: 46.7 a.u.
2'F-ANA at 2 6 10 12 14 15: 119 a.u.
2'F-ANA at 2 3 4 6 7 8 9 11 12 13: 658 a.u.
2'F-ANA at 1 2 4 5 9 13: 92.3 a.u.
2'F-ANA at 6 7 10 13 14 15: 113 a.u.

Single results of other studies
PhoQ, residues 284 288 289 292 302 303 TTSMTC
fold induction (PhoP, residues 12 14 15 18 19 GHCSL (Escherichia coli, UniProt P23836); Sort-seq, refers to: YFP reporter; E. coli; PhoQ-PhoP variant library, added: 10 µM Mg2+; relative to: high Mg2+ state, higher = stronger signaling): 12.1

For quick reference, copied from above (study 3):
2'F-ANA at 2 5 6 10 11 15: 51.1 a.u.
2'F-ANA at 1 4 9 10 11 12 13 14 15: 46.7 a.u.
2'F-ANA at 2 6 10 12 14 15: 119 a.u.
2'F-ANA at 3 4 5 6 8 10 11 15: 52.7 a.u.
